Published values collected from several papers.
Lines come from different studies, so protocols differ. Several values in a cell are separate wells, animals, samples, runs or records.
Target: MAP kinase-activated protein kinase 5 (MAPKAPK5, Homo sapiens, UniProt Q8IW41)
Sequence (Q8IW41 1-473, as in one of the studies): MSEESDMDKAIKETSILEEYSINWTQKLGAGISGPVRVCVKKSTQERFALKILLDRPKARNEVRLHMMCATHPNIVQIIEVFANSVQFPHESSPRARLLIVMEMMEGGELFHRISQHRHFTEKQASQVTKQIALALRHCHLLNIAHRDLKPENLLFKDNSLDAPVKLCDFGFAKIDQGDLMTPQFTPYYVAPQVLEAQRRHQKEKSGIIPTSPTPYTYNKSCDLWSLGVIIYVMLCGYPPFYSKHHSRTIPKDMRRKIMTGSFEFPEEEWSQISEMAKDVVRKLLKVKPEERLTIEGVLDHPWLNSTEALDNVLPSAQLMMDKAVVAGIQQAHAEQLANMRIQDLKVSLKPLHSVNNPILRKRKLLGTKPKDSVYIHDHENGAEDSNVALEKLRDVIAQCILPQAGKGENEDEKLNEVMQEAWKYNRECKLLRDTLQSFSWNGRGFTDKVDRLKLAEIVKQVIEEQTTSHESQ

COc1c(OCCCN2CCOCC2)ccc2c1N=C(NC(=O)c1cnc(N)nc1)N1CCN=C21 — remaining activity (kinase activity, inhibitor; 1 µM; baseline: untreated control): 129%
Cc1cccc(-c2ccc3nc(NC(=O)C4CCCO4)nn3c2)c1 (stereo not drawn) — remaining activity (enzyme activity, Dundee kinase panel; 10 µM): 65%
Nc1nc(Nc2ccccc2)sc1C(=O)c1ccccc1 — remaining activity (enzyme activity, inhibitor; 10 µM): 72%
CN1CC[C@@H](COc2cnc(C#N)cc2-c2ccn3nc(NC(=O)C4CC4)cc3c2)C1 — inhibition (enzyme activity, inhibitor; 1 µM): 0%
CNC1C[S+]2CC[S+]3CC[S+](C1)[Ru-4]321([N]=C=S)[n]2c3ccc(OC)cc3c3c4c(c5cc(F)c[n+]1c5c32)C(=O)NC4=O (stereo not drawn) — remaining binding (KinomeScan; 0.1 µM; baseline: untreated): 100%
N[C@H]1CC[C@H](Nc2nccc(-c3cccnc3Oc3ccc(NC(=O)NC4CC4)c4ccccc34)n2)CC1 — log2 LFQ intensity (kinobead competition pulldown; HEK293/HCT116 lysate mixture; 10 µM, 1 h, 4 °C; lower = stronger competition): 26.1 and 26 and 25.9
CCn1cc(C(=O)O)c(=O)c2c(N)c(F)c(NC3CCCCC3)cc21 — inhibition (kinase activity; 0.1 µM, with: ATP at Km): -15.8%
C=CC(=O)N1CCCC(n2c(=O)c3ncccc3n(Cc3ccc(Oc4ccccc4)cc3)c2=O)C1 (stereo not drawn) — remaining binding (cell-free assay, competition with immobilised ligand; 1 µM): 78%
COc1cc(Nc2nccc(-c3cnn4nc(OC)ccc34)n2)cc(C(F)(F)F)c1 — remaining binding (binding, competition with immobilised ligand; 1 µM): 78%
NC(=O)[C@@H](O)C[C@H]1CCc2sc3ncnc(O[C@H]4CC[C@H](N5CCOCC5)CC4)c3c21 — inhibition (enzyme activity, inhibitor; 10 µM): 2%
Cc1cccc(-c2ccc3nc(NC(=O)C4CCCCC4)nn3c2)c1 — remaining activity (enzyme activity, Dundee kinase panel; 10 µM): 75%
C=CC(=O)N1CCc2ccc(-n3c(=O)ccc4cnc5ccc(-c6cnn(C)c6)cc5c43)cc21 — remaining binding (KINOMEscan; 1 µM; baseline: DMSO control): 98%

Repeated from above:
C=CC(=O)N1CCCC(n2c(=O)c3ncccc3n(Cc3ccc(Oc4ccccc4)cc3)c2=O)C1 (stereo not drawn) — remaining binding (cell-free assay, competition with immobilised ligand; 1 µM): 78%
COc1cc(Nc2nccc(-c3cnn4nc(OC)ccc34)n2)cc(C(F)(F)F)c1 — remaining binding (binding, competition with immobilised ligand; 1 µM): 78%
